Measured values gathered from unrelated publications.
Parts stem from different laboratories: compare values within a part only. “And” joins repeats or separate records; there may be more than shown.
Sequence of UniProt O15197 (whole entry, looked up): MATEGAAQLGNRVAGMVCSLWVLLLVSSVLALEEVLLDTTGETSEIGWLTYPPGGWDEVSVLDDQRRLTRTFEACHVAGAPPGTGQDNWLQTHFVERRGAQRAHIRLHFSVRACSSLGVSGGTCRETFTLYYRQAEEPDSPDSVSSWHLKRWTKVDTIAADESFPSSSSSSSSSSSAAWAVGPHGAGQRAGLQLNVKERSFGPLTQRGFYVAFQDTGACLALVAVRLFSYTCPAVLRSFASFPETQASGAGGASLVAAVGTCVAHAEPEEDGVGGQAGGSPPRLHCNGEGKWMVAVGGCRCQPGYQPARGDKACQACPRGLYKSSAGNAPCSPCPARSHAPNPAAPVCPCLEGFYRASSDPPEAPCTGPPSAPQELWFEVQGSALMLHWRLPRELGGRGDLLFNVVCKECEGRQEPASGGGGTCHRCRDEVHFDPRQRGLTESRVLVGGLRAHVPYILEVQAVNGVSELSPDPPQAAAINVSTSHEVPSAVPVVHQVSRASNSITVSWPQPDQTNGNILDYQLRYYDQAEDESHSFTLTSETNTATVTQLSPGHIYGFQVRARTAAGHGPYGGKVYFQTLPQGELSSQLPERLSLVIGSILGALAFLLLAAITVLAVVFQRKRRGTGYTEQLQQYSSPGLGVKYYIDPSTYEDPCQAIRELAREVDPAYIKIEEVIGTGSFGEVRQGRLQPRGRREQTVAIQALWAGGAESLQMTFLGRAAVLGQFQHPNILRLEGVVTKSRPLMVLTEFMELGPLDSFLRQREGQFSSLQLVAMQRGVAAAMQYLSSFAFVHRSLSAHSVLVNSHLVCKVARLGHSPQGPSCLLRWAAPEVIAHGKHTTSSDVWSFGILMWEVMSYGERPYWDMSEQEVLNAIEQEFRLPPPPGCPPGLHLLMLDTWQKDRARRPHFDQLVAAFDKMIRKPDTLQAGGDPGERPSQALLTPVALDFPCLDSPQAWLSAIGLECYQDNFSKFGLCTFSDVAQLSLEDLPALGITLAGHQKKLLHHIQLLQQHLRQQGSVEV
Sequence of UniProt P00519 (whole entry, looked up): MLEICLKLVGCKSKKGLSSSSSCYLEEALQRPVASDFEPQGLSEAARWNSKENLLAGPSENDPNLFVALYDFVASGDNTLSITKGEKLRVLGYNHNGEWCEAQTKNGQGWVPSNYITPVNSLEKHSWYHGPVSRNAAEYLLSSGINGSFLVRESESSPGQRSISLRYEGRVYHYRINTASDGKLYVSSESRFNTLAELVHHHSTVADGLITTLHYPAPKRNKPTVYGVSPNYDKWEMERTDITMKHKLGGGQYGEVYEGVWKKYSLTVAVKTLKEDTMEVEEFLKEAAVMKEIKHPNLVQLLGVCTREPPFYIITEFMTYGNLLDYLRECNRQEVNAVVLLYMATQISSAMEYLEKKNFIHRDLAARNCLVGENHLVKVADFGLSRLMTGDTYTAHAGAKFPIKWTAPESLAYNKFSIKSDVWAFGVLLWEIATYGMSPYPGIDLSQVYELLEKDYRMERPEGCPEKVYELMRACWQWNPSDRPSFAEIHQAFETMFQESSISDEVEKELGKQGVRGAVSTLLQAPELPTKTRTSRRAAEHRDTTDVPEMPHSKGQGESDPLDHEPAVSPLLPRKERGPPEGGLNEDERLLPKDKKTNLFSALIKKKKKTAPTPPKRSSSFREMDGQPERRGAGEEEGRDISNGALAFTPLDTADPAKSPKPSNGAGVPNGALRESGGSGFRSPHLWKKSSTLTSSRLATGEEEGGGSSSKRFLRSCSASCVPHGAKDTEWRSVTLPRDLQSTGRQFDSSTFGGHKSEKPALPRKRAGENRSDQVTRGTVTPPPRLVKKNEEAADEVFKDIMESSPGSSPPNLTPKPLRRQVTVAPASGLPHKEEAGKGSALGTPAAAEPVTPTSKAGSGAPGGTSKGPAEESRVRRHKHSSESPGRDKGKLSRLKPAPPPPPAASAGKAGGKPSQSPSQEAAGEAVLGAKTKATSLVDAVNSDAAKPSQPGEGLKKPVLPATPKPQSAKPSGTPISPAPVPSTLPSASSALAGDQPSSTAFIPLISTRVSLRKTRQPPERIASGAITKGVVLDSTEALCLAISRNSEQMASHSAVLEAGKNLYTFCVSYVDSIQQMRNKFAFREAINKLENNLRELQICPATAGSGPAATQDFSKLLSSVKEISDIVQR
Sequence of UniProt O75385 (whole entry, looked up): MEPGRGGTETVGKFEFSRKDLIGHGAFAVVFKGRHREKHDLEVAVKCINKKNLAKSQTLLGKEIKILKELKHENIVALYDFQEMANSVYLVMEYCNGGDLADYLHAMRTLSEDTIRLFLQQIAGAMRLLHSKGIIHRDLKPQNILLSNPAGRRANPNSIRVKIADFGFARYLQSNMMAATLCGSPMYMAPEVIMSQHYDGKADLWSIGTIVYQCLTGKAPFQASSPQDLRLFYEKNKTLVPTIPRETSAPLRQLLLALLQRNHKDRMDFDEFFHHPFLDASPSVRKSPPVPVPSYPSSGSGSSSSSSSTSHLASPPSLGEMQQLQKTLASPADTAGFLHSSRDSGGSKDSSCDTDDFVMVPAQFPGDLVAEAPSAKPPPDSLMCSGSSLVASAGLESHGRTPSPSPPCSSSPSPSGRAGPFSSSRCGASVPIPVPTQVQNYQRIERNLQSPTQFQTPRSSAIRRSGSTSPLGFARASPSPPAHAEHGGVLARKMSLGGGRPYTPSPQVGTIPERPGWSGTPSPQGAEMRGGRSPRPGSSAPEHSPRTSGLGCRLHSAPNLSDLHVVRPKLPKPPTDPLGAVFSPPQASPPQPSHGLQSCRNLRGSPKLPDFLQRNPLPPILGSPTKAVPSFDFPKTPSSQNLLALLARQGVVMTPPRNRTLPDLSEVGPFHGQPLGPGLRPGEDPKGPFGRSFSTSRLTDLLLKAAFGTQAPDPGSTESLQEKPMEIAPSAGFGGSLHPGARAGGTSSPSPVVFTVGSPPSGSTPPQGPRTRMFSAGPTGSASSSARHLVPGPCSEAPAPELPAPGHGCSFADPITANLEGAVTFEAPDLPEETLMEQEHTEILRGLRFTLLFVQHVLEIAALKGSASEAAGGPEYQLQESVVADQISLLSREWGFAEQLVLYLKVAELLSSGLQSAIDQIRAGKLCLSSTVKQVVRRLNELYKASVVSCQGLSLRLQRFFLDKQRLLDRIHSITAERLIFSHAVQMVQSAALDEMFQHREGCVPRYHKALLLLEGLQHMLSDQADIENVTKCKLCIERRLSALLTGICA
Sequence of UniProt P50750 (whole entry, looked up): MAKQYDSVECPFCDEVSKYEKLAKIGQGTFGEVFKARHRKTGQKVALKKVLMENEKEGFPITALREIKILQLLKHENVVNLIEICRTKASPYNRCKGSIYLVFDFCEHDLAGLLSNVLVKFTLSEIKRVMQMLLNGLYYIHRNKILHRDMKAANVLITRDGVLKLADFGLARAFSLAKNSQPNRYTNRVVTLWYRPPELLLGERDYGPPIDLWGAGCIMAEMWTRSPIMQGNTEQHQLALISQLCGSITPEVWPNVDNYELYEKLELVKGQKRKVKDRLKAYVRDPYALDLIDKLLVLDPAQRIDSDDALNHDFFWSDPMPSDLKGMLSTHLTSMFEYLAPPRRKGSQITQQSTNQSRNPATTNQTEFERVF

Sample 1 — action: inhibitor; concentration: 5 µM; reference: vehicle
SMILES: O=C1NC(=O)C(c2cn(-c3ccccc3)nc2-c2ccc(F)cc2)N1 (centres unmarked)
target | test | test system | setting | log2 fold change
Fas-activated serine/threonine kinase (Homo sapiens, UniProt Q14296) | cell-based kinome screen | human cells | – | -0.256
BCR-ABL human | kinase-CDC37 interaction | human cells | – | -1.35
PRKAA1 (Homo sapiens, UniProt Q13131) | kinase–CDC37 interaction | – | kinome plate 4@G07 | 0.273
CDKL4 (Homo sapiens, UniProt Q5MAI5) | kinase-CDC37 interaction | human cells | – | 0.163

Sample 2 — observed: enzyme activity; action: inhibitor; concentration: 10 µM
Target: Calcium/calmodulin-dependent protein kinase type II subunit alpha (CAMK2A, Homo sapiens, UniProt Q9UQM7)
Sequence of UniProt Q9UQM7 (whole entry, looked up): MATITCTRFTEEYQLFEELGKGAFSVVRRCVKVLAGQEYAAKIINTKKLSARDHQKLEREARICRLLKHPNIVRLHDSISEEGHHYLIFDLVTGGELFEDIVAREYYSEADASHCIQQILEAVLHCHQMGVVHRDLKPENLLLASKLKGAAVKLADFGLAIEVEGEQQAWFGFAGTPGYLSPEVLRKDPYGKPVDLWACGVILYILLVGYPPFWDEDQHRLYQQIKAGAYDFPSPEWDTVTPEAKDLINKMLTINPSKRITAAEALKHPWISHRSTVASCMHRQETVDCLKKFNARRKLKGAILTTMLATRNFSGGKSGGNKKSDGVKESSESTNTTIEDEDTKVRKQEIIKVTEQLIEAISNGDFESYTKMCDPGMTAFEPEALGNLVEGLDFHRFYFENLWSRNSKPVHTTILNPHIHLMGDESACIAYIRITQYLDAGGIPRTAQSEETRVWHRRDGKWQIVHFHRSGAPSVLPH
Structure (SMILES) | inhibition
C[N+](C)(C)CCOP(=O)([O-])OP(=O)(O)OC[C@H]1O[C@@H](n2ccc(N)nc2=O)[C@H](O)[C@@H]1O | -4%
COc1cc2oc(-c3ccccc3)cc(=O)c2c(OC)c1OC | -1%
CO[C@@H]1[C@H](O)CC[C@]2(CO2)[C@H]1[C@@]1(C)O[C@@H]1CC=C(C)C | -30%

Sample 3 — concentration: 1 µM
SMILES: CCS(=O)(=O)c1cc2cc(C[C@@](O)(CC(C)(C)c3ccc(F)cc3C(N)=O)C(F)(F)F)[nH]c2cn1
target | test | remaining binding [%]
AXL (Homo sapiens, UniProt P30530) | cell-free assay, competition with immobilised ligand | 100
LTK (Homo sapiens, UniProt P29376) | cell-free assay, competition with immobilised ligand | 100
Receptor-type tyrosine-protein kinase FLT3, autoinhibited (FLT3, Homo sapiens, UniProt P36888) | cell-free assay, competition with immobilised ligand | 100
Tyrosine-protein kinase ABL1, phosphorylated (ABL1, Homo sapiens, UniProt P00519) | cell-free assay, competition with immobilised ligand | 71
RAF1 (Homo sapiens, UniProt P04049) | cell-free assay, competition with immobilised ligand | 81
FLT3 (Homo sapiens, UniProt P36888, F691L/ITD) | cell-free assay, competition with immobilised ligand | 86
BMX (Homo sapiens, UniProt P51813) | cell-free assay, competition with immobilised ligand | 50
CDK9 (Homo sapiens, UniProt P50750) | cell-free assay, competition with immobilised ligand | 78
EPHB6 (Homo sapiens, UniProt O15197) | cell-free assay, competition with immobilised ligand | 100
ULK1 (Homo sapiens, UniProt O75385) | cell-free assay, competition with immobilised ligand | 100
STK3 (Homo sapiens, UniProt Q13188) | cell-free assay, competition with immobilised ligand | 100
TGFBR2 (Homo sapiens, UniProt P37173) | cell-free assay, competition with immobilised ligand | 100
AAK1 (Homo sapiens, UniProt Q2M2I8) | binding | 100
PIK3CA (Homo sapiens, UniProt P42336, C420R) | cell-free assay, competition with immobilised ligand | 89
GAK (Homo sapiens, UniProt O14976) | cell-free assay, competition with immobilised ligand | 71
CLK1 (Homo sapiens, UniProt P49759) | cell-free assay, competition with immobilised ligand | 100
DDR1 (Homo sapiens, UniProt Q08345) | cell-free assay, competition with immobilised ligand | 100
CIT (Homo sapiens, UniProt O14578) | cell-free assay, competition with immobilised ligand | 96
CAMK1 (Homo sapiens, UniProt Q14012) | cell-free assay, competition with immobilised ligand | 57

Sample 4 — technique: flow cytometry; species: mice bearing MC38-OVA tumours; sample: tumour-infiltrating CD8+ T cells; dose: dose not given
Structure (SMILES): CC(=O)N[C@@H](Cc1c[nH]c2ccccc12)C(=O)N[C@@H](CCC(=O)C=[N+]=[N-])C(=O)OC(C)C
test | scale | cell fraction
item: CD62L+ CD8+ cells | reference: CD8+ TILs | 25.7% and 30.1% and 25.9% and 28.3%
item: TCF1- TOX+ CD8+ cells | reference: CD8+ TILs | 16.8% and 16.4% and 15.7% and 15.6% and 18.4% and 17.7% and 26.8%
item: PD-1+ LAG-3+ cells | reference: CD8+ TILs | 23% and 21.3% and 26.7% and 29.2%
item: TCF1- TOX+ CD8+ cells | reference: OVA-tetramer+ CD8+ TILs | 6.63% and 14.9% and 15.3% and 13.6% and 16.2% and 10.8% and 18% and 14.8%

Sample 5 — cell line: HaCaT; concentration: 100 µM; time: 36 h
SMILES | viability [%]
CC#C[C@]1(O)CC[C@H]2[C@@H]3CCC4=CC(=O)CCC4=C3[C@@H](c3ccc(N(C)C)cc3)C[C@@]21C | 19.7
CNC1CCCN(c2c(F)cc3c(=O)c(C(=O)O)cn(C4CC4)c3c2OC)C1 (centres unmarked) | 82.7
CCOC(=O)[C@H](CCc1ccccc1)N[C@@H](C)C(=O)N1Cc2ccccc2C[C@H]1C(=O)O | 95.7
O=C(O)COC(=O)Cc1ccccc1Nc1c(Cl)cccc1Cl | 56
Cc1c(NC(=O)c2cccnc2)c(=O)n(-c2ccccc2)n1C | 90.5

Sample 6
SMILES: COc1cc(C(=O)N2CCC(N3CCN(C)CC3)CC2)ccc1Nc1ncc2c(n1)N(C)c1ccccc1C(=O)N2C
target or system | test | test system | setting | inhibition [%]
MAP2K4 (human) | probe labelling, KiNativ ATP probe | human PBMC lysate | concentration not given, LYS2 labelled site | 9
human PBMC | probe labeling, inhibitor, KiNativ profiling | cell lysate | concentration not given, domain 2, LYS1 site, added: ADP acyl-phosphate probe 1 µM | 33.7
EGFR (mouse) | probe labelling, KiNativ, item: IPVAIkELR peptide, LYS1 site | brain tissue lysate (mouse) | 0.1 µM, added: ATP acyl-phosphate probe | -3.9
NEK1 (mouse) | probe labelling, KiNativ, item: DIkSQNIFLTK peptide, LYS2 site | brain tissue lysate (mouse) | 1 µM, added: ADP acyl-phosphate probe | 7.6
PKD1 mouse | KiNativ profiling | mouse brain lysate | 0.1 µM, LYS1 site, added: ADP acyl phosphate probe | -7.9
CaMK1b (mouse) | probe labelling, KiNativ, item: Lys1 site peptide | brain tissue lysate (mouse) | 1 µM, added: ADP acyl-phosphate probe | -5

A few entries again (sample 5):
SMILES | viability [%]
CNC1CCCN(c2c(F)cc3c(=O)c(C(=O)O)cn(C4CC4)c3c2OC)C1 (centres unmarked) | 82.7
CCOC(=O)[C@H](CCc1ccccc1)N[C@@H](C)C(=O)N1Cc2ccccc2C[C@H]1C(=O)O | 95.7
O=C(O)COC(=O)Cc1ccccc1Nc1c(Cl)cccc1Cl | 56
